# Assay results from different studies.
# Protocols differ between the studies behind these lines.
Structure (SMILES),organism,assay,system,setting,scale,endpoint,result
Cc1ccc(C(c2c[nH]c(=O)[nH]c2=O)c2c[nH]c(=O)[nH]c2=O)cc1,HIV-1 subtype C,measured: p24,,concentration not given,,antiviral activity,inactive
CNc1cc(C(=O)Nc2ccc(Cl)cc2)ccc1OC,duck hepatitis B virus,qPCR,"Pekin ducklings, infected","oral, 100 mg/kg",reference: vehicle,serum viral DNA reduction,≤ 2 log10
O=C(NO)c1ccc(CC(=O)N(CCO)c2ccccc2)cc1,Lucilia cuprina,pupation,"LS strain, larvae on impregnated cotton wool",216 h,,IC50,> 1000 µg
CC(=O)[O-].O.O.O.O.[Co+2].[O-]c1ccc(Br)cc1C=NCCN1CCOCC1,Candida albicans,,,20 µL of 100 µM per disc,,inhibition zone diameter,10 mm
Fc1ccc2c(c1)c1nc3ccc(Br)cc3c-1cn2Cc1cn(-c2ccccc2I)nn1,Giardia duodenalis,"UHPLC-Q-TOF-MS, measured: 1-heptadecanoyl-sn-glycero-3-phosphocholine",trophozoites,"IC50, m/z 508.3, retention 10.52 min",reference: 0.25% DMSO,fold change,3.39
O=c1[nH]cc(C(c2ccc(Cl)cc2)c2c[nH]c(=O)[nH]c2=O)c(=O)[nH]1,HIV-1 subtype C,"viral replication, measured: p24",,,,IC50,120 µg/mL
CC(C)C(=O)SCCCCCC(NC(=O)OC(C)(C)C)C(=O)NC12CC3CC(CC(C3)C1)C2 (stereo not shown),Lucilia cuprina,larval weight gain,"LS strain, larvae on impregnated cotton wool",24 h,,IC50,284 µg
Brc1ccc(-c2c[nH]c(-c3ccccn3)n2)cc1,Schistosoma mansoni,,worm couples,10 µM,,reduction in egg number,50%
O=C(NO)c1cccc(C(=O)NCCc2ccccc2)c1,Lucilia cuprina,pupation,"LS strain, larvae on impregnated cotton wool",216 h,,IC50,> 1000 µg
CN1C[C@H](c2cccc(C(F)(F)F)c2)[C@@H](C(=O)Nc2ccccc2F)C1=O,Arabidopsis thaliana,root length,overexpressing wild-type DHODH WT-10,5 µM,reference: non-transgenic wild type,tolerance,~2.8 fold
